Published values gathered from unrelated publications.
Compare with care: the assays were run in different laboratories.
Target: Vascular endothelial growth factor receptor 2 (KDR, Homo sapiens, UniProt P35968)
UniProt P35968, sequence (whole entry, looked up): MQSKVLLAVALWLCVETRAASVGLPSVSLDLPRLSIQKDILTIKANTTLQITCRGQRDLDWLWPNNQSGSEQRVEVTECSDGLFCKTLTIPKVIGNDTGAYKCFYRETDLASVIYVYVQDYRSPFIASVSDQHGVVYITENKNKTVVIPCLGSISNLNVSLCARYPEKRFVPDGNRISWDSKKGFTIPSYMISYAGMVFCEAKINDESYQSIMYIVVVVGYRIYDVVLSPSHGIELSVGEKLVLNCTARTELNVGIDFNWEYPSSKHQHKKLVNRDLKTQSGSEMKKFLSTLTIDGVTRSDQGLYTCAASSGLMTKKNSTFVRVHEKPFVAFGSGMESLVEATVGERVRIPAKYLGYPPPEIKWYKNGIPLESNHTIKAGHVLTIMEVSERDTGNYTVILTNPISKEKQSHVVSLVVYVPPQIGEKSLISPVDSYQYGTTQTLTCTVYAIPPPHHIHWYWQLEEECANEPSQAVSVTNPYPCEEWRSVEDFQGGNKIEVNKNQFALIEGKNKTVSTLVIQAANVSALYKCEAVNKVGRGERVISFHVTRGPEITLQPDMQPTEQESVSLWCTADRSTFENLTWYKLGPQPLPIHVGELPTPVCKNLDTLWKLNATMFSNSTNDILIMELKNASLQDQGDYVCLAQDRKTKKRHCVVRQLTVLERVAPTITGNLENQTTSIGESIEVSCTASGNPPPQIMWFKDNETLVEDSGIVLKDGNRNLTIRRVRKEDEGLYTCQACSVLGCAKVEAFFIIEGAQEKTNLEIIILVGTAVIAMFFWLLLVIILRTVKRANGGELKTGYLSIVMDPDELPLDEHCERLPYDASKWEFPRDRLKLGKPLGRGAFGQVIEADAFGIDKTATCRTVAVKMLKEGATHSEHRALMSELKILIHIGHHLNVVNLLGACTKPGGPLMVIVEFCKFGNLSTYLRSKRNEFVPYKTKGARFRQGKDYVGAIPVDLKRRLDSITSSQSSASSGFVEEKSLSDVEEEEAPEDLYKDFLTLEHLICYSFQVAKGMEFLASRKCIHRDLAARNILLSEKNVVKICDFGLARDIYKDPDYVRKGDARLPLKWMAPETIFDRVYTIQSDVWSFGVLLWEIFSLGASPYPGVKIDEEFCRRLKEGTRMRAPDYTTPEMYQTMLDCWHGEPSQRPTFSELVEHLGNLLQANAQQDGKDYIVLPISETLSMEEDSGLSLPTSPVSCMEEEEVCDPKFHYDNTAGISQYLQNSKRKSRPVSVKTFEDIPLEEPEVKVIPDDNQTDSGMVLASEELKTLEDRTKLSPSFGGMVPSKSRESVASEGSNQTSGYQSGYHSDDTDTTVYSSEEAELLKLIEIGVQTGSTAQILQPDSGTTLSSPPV

SMILES	assay	conditions	how to read	measurement	result
COc1cc(-c2cncc3c2CN(C)Cc2cc(N4CCNCC4)ccc2-3)cc(OC)c1OC	kinase activity	1 µM, human enzyme, together with: ATP 10 µM	relative to: DMSO control	remaining activity	110%
CNc1ncc2c(/C=C/C(=O)N3CCC(OC)CC3)nn(Cc3cccc(C(F)(F)F)c3)c2n1	kinase activity, inhibitor	1 µM	relative to: untreated control	remaining activity	93%
COc1cc(F)ccc1-c1ncnc(Nc2cccc(C[S@](C)(=N)=O)c2)n1	kinase activity	10 µM, together with: 10 µM ATP	–	remaining activity	53%
O=S1(=O)N=C(NCc2ccc(OC(F)(F)F)cc2)Nc2cc(Cl)ccc21	enzyme activity	10 µM	–	inhibition	no inhibition
C#Cc1cc(-c2cc(Nc3nc(N[C@@H](C)c4ccc(F)cn4)ncc3Cl)n[nH]2)ccc1C=O	enzyme activity, inhibitor	0.2 µM	–	inhibition	29.4%
Cc1cc(Nc2cc(N3CCN(C)CC3)nc(Sc3ccc(NC(=O)C4CC4)cc3)n2)[nH]n1	kinase activity, KinaseProfiler	0.03 µM, species human	relative to: control	remaining activity	84%
[2H]c1cc(C)c(NC(=O)c2cnc(Nc3cc(N4CCCCC4)nc(C)n3)s2)c(Cl)c1	–	0.01 µM	–	inhibition	< 30%
O=C(NC1CCC1)c1ccc2nc(-c3cccc(NS(=O)(=O)NCCN4CCCCC4)c3)cn2c1	enzyme activity	10 µM	–	remaining activity	71%
c1cnc2ccc(Nc3nc(NC4CC4)c4nc[nH]c4n3)cc2c1	kinase activity, inhibitor, SelectScreen kinase profiling	1 µM	relative to: control	remaining activity	82%
O=C(O)[C@H]1O[C@@H](Oc2cc(O)c3c(=O)cc(-c4ccc(O)c(O)c4)oc3c2)[C@H](O)[C@@H](O)[C@@H]1O	inhibitor, LANCE Ultra	40 µM	–	inhibition	> 80%

A few entries again:
SMILES	assay	conditions	how to read	measurement	result
O=C(NC1CCC1)c1ccc2nc(-c3cccc(NS(=O)(=O)NCCN4CCCCC4)c3)cn2c1	enzyme activity	10 µM	–	remaining activity	71%
c1cnc2ccc(Nc3nc(NC4CC4)c4nc[nH]c4n3)cc2c1	kinase activity, inhibitor, SelectScreen kinase profiling	1 µM	relative to: control	remaining activity	82%
